# Results collected from several papers.
# A part holds a random share of what one study measured.
# Chain of UniProt Q96J92 (whole entry, looked up): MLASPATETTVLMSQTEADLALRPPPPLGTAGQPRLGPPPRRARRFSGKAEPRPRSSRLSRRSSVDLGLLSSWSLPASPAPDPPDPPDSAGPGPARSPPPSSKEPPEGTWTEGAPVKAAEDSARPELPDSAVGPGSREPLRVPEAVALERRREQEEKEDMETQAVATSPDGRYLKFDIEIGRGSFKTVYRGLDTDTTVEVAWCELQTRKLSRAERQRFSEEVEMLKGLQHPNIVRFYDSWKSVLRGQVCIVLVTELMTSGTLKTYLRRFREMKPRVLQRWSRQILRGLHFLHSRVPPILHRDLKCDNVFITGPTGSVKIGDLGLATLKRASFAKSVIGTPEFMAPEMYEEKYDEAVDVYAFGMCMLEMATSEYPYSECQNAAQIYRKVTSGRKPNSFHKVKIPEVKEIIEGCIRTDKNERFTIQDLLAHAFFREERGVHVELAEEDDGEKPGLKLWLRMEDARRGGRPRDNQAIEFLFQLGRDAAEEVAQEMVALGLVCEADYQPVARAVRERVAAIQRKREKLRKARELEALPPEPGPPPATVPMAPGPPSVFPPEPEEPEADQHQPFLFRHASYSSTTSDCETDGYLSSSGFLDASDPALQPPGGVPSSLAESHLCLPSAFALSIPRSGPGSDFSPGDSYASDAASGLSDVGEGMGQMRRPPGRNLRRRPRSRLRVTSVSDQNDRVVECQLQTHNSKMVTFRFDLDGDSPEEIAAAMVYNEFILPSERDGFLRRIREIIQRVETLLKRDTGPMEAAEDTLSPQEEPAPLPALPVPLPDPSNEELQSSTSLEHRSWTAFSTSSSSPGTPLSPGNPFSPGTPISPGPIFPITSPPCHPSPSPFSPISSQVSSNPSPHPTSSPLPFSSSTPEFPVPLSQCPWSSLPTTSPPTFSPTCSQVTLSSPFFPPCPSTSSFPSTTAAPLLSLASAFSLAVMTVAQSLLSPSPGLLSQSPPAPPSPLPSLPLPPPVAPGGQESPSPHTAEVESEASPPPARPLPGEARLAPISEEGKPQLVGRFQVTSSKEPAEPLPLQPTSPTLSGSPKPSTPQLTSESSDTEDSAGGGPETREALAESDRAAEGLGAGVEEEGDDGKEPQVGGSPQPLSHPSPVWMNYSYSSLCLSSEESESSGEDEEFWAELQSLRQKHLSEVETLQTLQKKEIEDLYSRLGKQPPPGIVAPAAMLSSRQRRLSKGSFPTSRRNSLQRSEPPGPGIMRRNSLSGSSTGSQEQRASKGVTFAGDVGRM
# Chain of UniProt Q8NEB9 (whole entry, looked up): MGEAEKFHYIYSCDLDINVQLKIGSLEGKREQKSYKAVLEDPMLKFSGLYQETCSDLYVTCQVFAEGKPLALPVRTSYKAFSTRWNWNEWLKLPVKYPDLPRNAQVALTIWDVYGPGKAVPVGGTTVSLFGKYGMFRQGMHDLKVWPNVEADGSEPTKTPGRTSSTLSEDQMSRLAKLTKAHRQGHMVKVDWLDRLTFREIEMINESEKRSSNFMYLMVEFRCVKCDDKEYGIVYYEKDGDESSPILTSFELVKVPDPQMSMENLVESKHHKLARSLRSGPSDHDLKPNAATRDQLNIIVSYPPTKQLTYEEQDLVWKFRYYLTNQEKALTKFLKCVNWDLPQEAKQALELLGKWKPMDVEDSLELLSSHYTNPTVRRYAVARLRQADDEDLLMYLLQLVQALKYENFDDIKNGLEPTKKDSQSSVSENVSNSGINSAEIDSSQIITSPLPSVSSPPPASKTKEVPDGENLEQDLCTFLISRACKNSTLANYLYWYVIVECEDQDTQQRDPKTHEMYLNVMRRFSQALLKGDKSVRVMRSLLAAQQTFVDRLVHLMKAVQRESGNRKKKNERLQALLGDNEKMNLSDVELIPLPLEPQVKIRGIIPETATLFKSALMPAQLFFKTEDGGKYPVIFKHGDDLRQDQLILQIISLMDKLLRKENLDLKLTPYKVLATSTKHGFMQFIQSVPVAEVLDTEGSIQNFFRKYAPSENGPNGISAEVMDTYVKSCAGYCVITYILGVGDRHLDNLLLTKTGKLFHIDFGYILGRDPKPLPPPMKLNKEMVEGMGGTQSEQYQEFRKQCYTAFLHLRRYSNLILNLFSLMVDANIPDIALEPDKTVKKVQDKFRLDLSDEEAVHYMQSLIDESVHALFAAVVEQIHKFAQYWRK
# Chain of UniProt Q16566 (whole entry, looked up): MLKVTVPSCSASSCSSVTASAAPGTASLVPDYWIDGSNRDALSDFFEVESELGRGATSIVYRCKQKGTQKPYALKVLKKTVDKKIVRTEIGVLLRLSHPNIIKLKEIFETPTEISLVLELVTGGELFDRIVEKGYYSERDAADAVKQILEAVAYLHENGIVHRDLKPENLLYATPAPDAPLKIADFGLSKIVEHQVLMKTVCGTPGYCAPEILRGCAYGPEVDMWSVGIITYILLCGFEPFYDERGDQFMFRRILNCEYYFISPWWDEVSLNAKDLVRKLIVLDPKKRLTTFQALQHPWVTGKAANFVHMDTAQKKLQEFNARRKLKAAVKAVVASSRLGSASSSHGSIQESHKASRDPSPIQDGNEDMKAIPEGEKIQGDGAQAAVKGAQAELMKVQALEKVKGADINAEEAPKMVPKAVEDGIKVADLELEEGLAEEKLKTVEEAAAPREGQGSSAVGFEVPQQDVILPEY
# Chain of UniProt P42684 (whole entry, looked up): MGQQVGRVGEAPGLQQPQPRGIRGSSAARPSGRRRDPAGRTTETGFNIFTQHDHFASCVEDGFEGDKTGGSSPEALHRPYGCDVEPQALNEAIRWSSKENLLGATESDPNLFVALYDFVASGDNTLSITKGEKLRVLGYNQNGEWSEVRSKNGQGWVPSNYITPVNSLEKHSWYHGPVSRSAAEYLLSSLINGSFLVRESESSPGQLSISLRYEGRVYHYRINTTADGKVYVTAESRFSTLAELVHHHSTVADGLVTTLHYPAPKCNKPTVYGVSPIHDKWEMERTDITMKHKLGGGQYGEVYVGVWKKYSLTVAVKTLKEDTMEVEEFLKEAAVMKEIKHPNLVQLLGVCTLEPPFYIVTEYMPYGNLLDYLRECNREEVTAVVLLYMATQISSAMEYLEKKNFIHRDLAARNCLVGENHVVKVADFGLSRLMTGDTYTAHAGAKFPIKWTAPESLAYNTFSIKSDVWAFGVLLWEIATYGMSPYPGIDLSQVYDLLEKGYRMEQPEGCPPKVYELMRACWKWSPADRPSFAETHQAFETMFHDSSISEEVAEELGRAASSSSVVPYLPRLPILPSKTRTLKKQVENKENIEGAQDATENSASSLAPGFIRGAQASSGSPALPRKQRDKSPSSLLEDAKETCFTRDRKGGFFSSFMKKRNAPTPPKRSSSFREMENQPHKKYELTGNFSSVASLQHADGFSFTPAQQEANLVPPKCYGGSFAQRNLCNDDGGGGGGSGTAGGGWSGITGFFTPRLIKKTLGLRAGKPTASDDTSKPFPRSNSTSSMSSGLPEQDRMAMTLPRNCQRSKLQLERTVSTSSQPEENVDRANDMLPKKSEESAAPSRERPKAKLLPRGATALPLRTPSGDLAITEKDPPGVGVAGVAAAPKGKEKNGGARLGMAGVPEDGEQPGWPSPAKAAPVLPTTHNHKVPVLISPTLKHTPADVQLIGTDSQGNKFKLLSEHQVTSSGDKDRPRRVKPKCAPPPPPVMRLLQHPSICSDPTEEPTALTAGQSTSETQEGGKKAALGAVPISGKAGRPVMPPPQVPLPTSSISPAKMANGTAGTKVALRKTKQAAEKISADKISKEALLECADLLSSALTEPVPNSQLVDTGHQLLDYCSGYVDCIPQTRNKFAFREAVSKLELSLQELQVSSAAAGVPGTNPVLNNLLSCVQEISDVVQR
# Chain of UniProt Q8TDX7 (whole entry, looked up): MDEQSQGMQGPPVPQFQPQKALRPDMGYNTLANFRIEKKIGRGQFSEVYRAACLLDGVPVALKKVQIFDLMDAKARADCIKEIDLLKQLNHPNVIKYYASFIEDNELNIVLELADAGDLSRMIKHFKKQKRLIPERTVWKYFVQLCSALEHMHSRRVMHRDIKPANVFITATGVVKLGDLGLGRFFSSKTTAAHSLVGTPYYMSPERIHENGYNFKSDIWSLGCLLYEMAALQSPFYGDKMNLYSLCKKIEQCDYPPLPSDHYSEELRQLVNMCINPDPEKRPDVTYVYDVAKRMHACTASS

# Series 1 — read-out: cell-free assay; method: competition with immobilised ligand; concentration: 1 µM
# Compound: COc1cc(-c2cn(C3CCc4c(F)cccc4N(CC(F)(F)F)C3=O)nn2)ccc1-n1cnc(C)c1 (stereo not drawn)
target,remaining binding [%]
"ABL2 (Homo sapiens, UniProt P42684)",100
"PKN2 (Homo sapiens, UniProt Q16513)",100
"CAMK4 (Homo sapiens, UniProt Q16566)",100
"EPHB2 (Homo sapiens, UniProt P29323)",100
"PIK3C3 (Homo sapiens, UniProt Q8NEB9)",100
"CAMKK2 (Homo sapiens, UniProt Q96RR4)",100
"WNK4 (Homo sapiens, UniProt Q96J92)",100
"DAPK3 (Homo sapiens, UniProt O43293)",100
"CAMK2B (Homo sapiens, UniProt Q13554)",100
"NEK7 (Homo sapiens, UniProt Q8TDX7)",100

# Series 2 — method: Spec-seq; form: double-stranded DNA, one strand shown; sample: in vitro; concentration: not given; setting: whole probe, mean of replicates; baseline: not given; direction: lower = stronger binding; shared flanks, not repeated: GAGTCGTCTCGTCAGCAC … CCGTAGAGCACTCAGGTC
# Target: Transcription factor SOX-2, HMG box (Sox2, Mus musculus, UniProt P48432, residues 41-119)
# Chain of UniProt P48432 (41-119, looked up): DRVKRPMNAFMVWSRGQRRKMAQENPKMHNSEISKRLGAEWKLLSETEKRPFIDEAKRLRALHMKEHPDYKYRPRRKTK
Sequence,relative binding energy
CATGCGA,0.515 ln ratio
CATTGCT,-0.355 ln ratio
CATGTTC,0.494 ln ratio
CCTGGTT,0.96 ln ratio
TTTCGTT,0.618 ln ratio
TGTCGTT,0.605 ln ratio
CATGAGC,0.144 ln ratio
GGATGTT,0.958 ln ratio

# Series 3 — method: RNA Bind-n-Seq; form: RNA; sample: in vitro; concentration: 200 nM; setting: whole 134-nt RNA, ends assumed; together with: 150 mM LiCl; baseline: input library; direction: higher = stronger binding; each molecule: 7-deaza-guanosine replaces G
# Target: Ras GTPase-activating protein-binding protein 1, full length (G3BP1, Homo sapiens, UniProt Q13283)
# Chain of UniProt Q13283 (whole entry, looked up): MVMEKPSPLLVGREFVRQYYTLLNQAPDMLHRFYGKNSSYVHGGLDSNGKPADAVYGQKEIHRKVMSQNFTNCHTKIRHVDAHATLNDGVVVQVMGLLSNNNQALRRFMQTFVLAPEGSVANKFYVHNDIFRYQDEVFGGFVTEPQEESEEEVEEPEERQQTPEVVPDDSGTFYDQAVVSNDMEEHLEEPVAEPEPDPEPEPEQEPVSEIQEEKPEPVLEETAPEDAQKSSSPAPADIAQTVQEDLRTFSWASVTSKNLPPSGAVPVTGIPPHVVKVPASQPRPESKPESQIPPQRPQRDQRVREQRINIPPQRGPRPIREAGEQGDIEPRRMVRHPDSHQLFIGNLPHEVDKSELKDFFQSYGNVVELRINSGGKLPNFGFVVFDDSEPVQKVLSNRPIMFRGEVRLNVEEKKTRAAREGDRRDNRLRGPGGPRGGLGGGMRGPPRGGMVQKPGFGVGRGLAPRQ
# Shared flanks, not repeated: GGGAGUUCUACAGUCCGACGAUC … UGGAAUUCUCGGGUGUCAAGG
Sequence,log2 enrichment
ACCAGGCAGGUGGGCAUCUUUGGGAAGUGGGGCAAGGGGGGGAUAGGGAGGGGGGUAACACUUUGGGAACAGGUGGUCCCAGGUCGUUUC,0.318
AGUCCUGUGCUACACAUCGUAUGUACCGAAUCGGUUUUUUUGGAAAGGUUUUUUUGGAAAGUAUUAUGUUACGCCGUUCGGAUCUGCACU,-2.47
AGUCCUGUGCUACACAUCGUAUGUACCGAAUCGGUUUUUGGGUUUUUGGGUUUUUGGAAAGUAUUAUGUUACGCCGUUCGGAUCUGCACU,-0.574
UAACUUUAGAGGAGGAUCUGAUGGAUAUGGCAGUGGACGUGGAUUUGGGGAUGGCUAUAACGGGUAUGGAGGAGGACCUGGAGGUGGCAA,-0.359
GCAGGAAGUAAAAACAAAAAAAAAUGCUUCGGAUAGUGGCAGGGGUGGGGGUUGCUAAGGAAAGGGUGGGAUGGGAGUGGGUAAAGAGUU,0.285
ACCAUGCAGGUGGCCAUCUUUGGGAAGUGGGGCAAGGGGGGGAUAGGGAGGGGGGUAACACUUUGGGAACAGGUGGUCCCAGGUCGUUUC,-0.458
GCAGGAAGUAAAAACAAAUGGAAAUGCUUCGGAUAGUGGCAGCGGUGGGGGUUGCUAAGGAAAGGGUGGGAUGGGAGUGGGUAAAGAGUU,0.0206
UAACUUUAGAGGAGGAUCUGAUGGAUAUGGCAGUGGACGUGGAUUUGGGGAUGGCUAUAAUGGGUAUGGAGGAGGACCUGGAGGUGGGAA,0.311

# Other studies, line by line
Structure (SMILES),test system,setting,endpoint,value
C=C(C)C1Cc2c(C)nn(-c3cccc4ccccc34)c2C1 (stereo not drawn),"human, microsomes or S9","2 µM, 0.5 h",remaining compound,1.88%

# Repeated from above (series 3):
Sequence,log2 enrichment
AGUCCUGUGCUACACAUCGUAUGUACCGAAUCGGUUUUUGGGUUUUUGGGUUUUUGGAAAGUAUUAUGUUACGCCGUUCGGAUCUGCACU,-0.574
UAACUUUAGAGGAGGAUCUGAUGGAUAUGGCAGUGGACGUGGAUUUGGGGAUGGCUAUAACGGGUAUGGAGGAGGACCUGGAGGUGGCAA,-0.359
GCAGGAAGUAAAAACAAAAAAAAAUGCUUCGGAUAGUGGCAGGGGUGGGGGUUGCUAAGGAAAGGGUGGGAUGGGAGUGGGUAAAGAGUU,0.285
